Measured values gathered from unrelated publications.
Protocols differ between the studies behind these lines.
4'-phosphopantetheinyl transferase PptT: 4'-phosphopantetheinyl transferase PptT (Mycobacterium tuberculosis, UniProt O33336)
Sequence of UniProt O33336 (whole entry, looked up): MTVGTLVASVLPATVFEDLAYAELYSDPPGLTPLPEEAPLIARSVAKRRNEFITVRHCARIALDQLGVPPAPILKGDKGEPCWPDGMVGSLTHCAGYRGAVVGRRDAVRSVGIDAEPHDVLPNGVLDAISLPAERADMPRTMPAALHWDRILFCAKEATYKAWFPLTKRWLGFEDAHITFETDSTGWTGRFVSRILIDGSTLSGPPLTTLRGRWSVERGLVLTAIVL
Sequence of UniProt O75747 (whole entry, looked up): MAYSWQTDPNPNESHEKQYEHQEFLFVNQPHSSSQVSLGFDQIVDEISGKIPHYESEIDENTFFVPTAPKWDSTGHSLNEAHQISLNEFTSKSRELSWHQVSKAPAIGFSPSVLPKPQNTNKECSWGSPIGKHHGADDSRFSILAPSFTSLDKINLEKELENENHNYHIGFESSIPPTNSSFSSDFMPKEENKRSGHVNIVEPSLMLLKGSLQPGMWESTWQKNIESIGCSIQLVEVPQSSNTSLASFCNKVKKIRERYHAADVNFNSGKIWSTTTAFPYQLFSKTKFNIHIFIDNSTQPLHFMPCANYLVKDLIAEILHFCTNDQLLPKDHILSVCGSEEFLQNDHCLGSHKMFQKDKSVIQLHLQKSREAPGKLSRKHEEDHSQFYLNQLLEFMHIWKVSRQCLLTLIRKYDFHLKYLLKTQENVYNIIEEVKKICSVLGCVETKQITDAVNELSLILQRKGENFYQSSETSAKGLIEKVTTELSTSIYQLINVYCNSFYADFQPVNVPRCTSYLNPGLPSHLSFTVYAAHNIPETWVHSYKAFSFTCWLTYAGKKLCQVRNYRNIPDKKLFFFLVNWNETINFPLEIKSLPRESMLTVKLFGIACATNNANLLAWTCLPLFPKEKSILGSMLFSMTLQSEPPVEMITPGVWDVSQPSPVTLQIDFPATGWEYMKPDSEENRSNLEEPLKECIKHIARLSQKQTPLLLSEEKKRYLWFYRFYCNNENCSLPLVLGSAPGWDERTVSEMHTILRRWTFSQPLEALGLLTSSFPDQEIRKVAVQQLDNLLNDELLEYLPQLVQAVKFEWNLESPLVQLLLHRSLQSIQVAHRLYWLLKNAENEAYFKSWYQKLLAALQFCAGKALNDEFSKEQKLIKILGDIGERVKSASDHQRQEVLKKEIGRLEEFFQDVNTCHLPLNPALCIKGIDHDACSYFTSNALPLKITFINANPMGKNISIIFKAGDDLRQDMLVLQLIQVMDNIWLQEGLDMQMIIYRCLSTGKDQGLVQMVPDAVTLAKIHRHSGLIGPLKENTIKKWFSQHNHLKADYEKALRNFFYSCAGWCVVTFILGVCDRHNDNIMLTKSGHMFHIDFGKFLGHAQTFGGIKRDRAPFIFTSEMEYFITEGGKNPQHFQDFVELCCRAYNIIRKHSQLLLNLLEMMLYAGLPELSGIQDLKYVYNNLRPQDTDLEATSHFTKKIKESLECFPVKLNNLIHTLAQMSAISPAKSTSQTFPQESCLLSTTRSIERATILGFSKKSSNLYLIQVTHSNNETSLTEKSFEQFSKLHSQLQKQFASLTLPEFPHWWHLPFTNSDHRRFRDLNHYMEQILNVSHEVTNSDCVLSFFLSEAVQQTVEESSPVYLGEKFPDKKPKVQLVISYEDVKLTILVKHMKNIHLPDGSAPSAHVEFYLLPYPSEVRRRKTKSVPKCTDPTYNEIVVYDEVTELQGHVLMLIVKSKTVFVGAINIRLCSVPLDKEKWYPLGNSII
Sequence of UniProt Q86Y07 (whole entry, looked up): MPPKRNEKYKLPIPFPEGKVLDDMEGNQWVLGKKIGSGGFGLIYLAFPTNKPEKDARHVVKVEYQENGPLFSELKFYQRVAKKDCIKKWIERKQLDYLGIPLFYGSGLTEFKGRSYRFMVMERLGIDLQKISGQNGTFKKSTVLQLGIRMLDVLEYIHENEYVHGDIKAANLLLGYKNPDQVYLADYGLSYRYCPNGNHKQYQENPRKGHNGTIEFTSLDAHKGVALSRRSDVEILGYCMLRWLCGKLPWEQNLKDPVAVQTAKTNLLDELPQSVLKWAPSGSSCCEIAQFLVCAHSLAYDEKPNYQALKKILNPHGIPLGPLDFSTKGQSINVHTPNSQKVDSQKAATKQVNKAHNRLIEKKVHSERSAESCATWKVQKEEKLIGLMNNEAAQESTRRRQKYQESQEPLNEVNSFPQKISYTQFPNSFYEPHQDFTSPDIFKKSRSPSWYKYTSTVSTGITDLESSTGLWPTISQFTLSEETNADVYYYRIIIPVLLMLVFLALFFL
Sequence of UniProt O95382 (whole entry, looked up): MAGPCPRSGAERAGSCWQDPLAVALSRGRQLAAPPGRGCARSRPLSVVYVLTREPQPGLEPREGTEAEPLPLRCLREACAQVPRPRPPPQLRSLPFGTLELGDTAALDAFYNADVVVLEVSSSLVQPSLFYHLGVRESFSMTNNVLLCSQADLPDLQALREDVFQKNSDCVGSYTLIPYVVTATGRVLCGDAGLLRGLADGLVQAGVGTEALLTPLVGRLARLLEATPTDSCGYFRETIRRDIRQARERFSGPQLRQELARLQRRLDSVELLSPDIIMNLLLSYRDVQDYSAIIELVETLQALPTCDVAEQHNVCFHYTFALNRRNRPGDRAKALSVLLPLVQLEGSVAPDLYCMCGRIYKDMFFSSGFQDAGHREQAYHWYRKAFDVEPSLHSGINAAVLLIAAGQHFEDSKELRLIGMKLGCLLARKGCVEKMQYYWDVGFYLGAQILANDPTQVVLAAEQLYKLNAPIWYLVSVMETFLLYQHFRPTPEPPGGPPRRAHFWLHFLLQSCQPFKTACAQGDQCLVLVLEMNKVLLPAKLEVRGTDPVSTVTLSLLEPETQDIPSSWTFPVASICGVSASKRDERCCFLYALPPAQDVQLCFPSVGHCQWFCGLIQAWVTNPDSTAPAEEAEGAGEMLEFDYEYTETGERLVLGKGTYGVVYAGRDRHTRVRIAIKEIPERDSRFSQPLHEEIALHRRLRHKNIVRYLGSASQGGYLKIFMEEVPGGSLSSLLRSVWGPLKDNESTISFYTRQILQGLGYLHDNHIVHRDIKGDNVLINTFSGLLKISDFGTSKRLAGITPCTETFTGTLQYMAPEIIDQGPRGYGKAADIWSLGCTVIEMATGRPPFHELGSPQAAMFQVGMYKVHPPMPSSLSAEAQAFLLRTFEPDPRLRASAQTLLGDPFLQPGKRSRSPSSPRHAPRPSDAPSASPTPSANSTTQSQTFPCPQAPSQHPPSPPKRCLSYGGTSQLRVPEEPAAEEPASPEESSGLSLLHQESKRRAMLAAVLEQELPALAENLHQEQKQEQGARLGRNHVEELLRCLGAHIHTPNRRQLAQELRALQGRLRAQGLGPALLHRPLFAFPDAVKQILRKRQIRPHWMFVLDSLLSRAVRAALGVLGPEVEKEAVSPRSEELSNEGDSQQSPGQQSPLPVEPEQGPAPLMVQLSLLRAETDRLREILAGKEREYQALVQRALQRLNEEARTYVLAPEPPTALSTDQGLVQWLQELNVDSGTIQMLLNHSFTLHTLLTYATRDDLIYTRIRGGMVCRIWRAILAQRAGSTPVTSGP

O=C1c2cc(Cl)ccc2NS(=O)(=O)N1Cc1cccnc1
IC50 (4'-phosphopantetheinyl transferase PptT; enzyme activity, inhibitor, FP): > 100 µM

O=c1c2ccccc2nc(/C=C/C2CCCCC2)n1-c1cccc(O)c1
MIC (Enterococcus faecium; microbial growth, broth dilution; NCTC7171): > 128 µg/mL

COC(=O)c1cc(-c2cccc(NC(=S)Nc3cc(C(F)(F)F)cc(C(F)(F)F)c3)c2)on1
MIC (Mycobacteroides abscessus; microbial growth, broth dilution; ATCC19977; 48 h): > 64 µg/mL

CCc1ccc(/C=C/c2nc3ccccc3c(=O)n2-c2cccc(O)c2)cc1
MIC (Enterococcus faecium; microbial growth, broth dilution; NCTC7171): > 128 µg/mL

COc1ncccc1-c1cnn2ccc(N3CCN(C(=O)OC(C)C)CC3)nc12
remaining binding (Mitogen-activated protein kinase kinase kinase 6 (MAP3K6, Homo sapiens, UniProt O95382); binding, competition with immobilised ligand; 1 µM): 100%

CC(C)C(=O)OCc1cc2[nH]c(=S)n(Cc3cccnc3)c(=O)c2cc1Cl
IC50 (4'-phosphopantetheinyl transferase PptT; enzyme activity, inhibitor, FP): 44.9 µM

O=c1c2ccccc2nc(/C=C/c2ccncc2)n1-c1cccc(O)c1
MIC (Enterococcus faecium; microbial growth, broth dilution; NCTC7171): 128 µg/mL

Oc1c(Cl)cc(Cl)cc1-c1[nH]c(Cl)c(Cl)c1Cl
MIC (Enterococcus faecalis; microbial growth; ATCC29212): 32 µM

COC(=O)c1cc(-c2cccc(NC(=S)Nc3ccc(OC)cc3)c2)on1
MIC (Mycobacteroides abscessus; microbial growth, broth dilution; ATCC19977; 48 h): > 64 µg/mL

CCOC(=O)c1c(-c2ccc(OC)cc2)oc2ccc(OCc3cn(Cc4ccccc4)nn3)c(CN3CCCCC3)c12
MIC (Mycolicibacterium smegmatis; microbial growth; MC2155; 72 h): 37.4 µM

Cc1nn(C)cc1-c1nc2c(N3CCN(Cc4ccc(Cl)cc4)CC3)c(Cl)cnc2[nH]1
remaining binding (Phosphatidylinositol 3-kinase C2 domain-containing subunit gamma (PIK3C2G, Homo sapiens, UniProt O75747); binding, competition with immobilised ligand; 1 µM): 100%

C#CCNC(=O)c1c(-c2ccc(OC)cc2)oc2ccc(O)c(CN3CCCCC3)c12
MIC (Mycolicibacterium smegmatis; microbial growth; MC2155; 72 h): 12 µM

Nc1ncc(-c2nc(N3CCOCC3)nc(N3CCOCC3)n2)c(C(F)F)n1
remaining binding (Receptor-type tyrosine-protein kinase FLT3, autoinhibited (FLT3, Homo sapiens, UniProt P36888); binding, competition with immobilised ligand; 10 µM): 50%

Oc1c(Br)cc(Br)cc1-c1[nH]c(Br)c(Br)c1Br
MIC (Salmonella enterica; microbial growth; ATCC13311): 16 µM

C[C@@H](O)[C@H]1C(=O)N2C(C(=O)O)=C(S[C@@H]3CN[C@H](C(=O)N(C)C)C3)[C@H](C)[C@H]12
MIC (Acinetobacter baumannii; microbial growth; NCTC13304; drug-resistant strain): > 8 µg/mL

COC(=O)c1cc(-c2cccc(NC(=O)Nc3cccc(F)c3)c2)on1
MIC (Mycobacteroides abscessus; microbial growth, broth dilution; ATCC19977; 48 h): > 64 µg/mL

O=c1ccc2nc3ccc(OCc4ccc([N+](=O)[O-])o4)cc3oc-2c1
MIC (Escherichia coli; microbial growth; 24 h): > 32 µg/mL

COC(=O)c1cc(-c2cccc(NC(=O)Nc3ccccc3C)c2)on1
MIC (Mycobacteroides abscessus; microbial growth, broth dilution; ATCC19977; 48 h): > 64 µg/mL

[2H]c1c([2H])c([C@]2([2H])CCCN2C(=O)C(C)(C)Oc2ccc3cn[nH]c3c2)c([2H])c([2H])c1C([2H])([2H])[2H]
remaining binding (Serine/threonine-protein kinase VRK2 (VRK2, Homo sapiens, UniProt Q86Y07); binding, competition with immobilised ligand; 1 µM): 92%

COc1ccc(-c2oc3ccc(O)c(CN4CCCCC4)c3c2C(=O)NCc2cn(C[C@H]3O[C@H](O[C@H]4O[C@H](CO)[C@@H](O)[C@H](O)[C@H]4O)[C@H](O)[C@@H](O)[C@@H]3O)nn2)cc1
MIC (Mycolicibacterium smegmatis; microbial growth; MC2155; 72 h): 12.6 µM

COC(=O)c1cc(-c2cccc(NC(=O)Nc3ccc(C)cc3)c2)on1
MIC (Mycobacteroides abscessus; microbial growth, broth dilution; ATCC19977; 48 h): > 64 µg/mL

O=c1ccc2nc3ccc(O)cc3oc-2c1
MIC (Serratia marcescens; microbial growth; 24 h): > 32 µg/mL

CCOC(=O)c1c(-c2ccc(OC)cc2)oc2ccc(O)c(CN3CCN(Cc4cn(C[C@H]5O[C@H](O[C@H]6O[C@H](CO)[C@@H](O)[C@H](O)[C@H]6O)[C@H](O)[C@@H](O)[C@@H]5O)nn4)CC3)c12
MIC (Mycolicibacterium smegmatis; microbial growth; MC2155; 72 h): 98 µM

COC(=O)c1cc(-c2cccc(NC(=S)Nc3cccc(Br)c3)c2)on1
MIC (Mycobacteroides abscessus; microbial growth, broth dilution; ATCC19977; 48 h): > 64 µg/mL

Repeated from above:
O=c1c2ccccc2nc(/C=C/c2ccncc2)n1-c1cccc(O)c1
MIC (Enterococcus faecium; microbial growth, broth dilution; NCTC7171): 128 µg/mL

Oc1c(Cl)cc(Cl)cc1-c1[nH]c(Cl)c(Cl)c1Cl
MIC (Enterococcus faecalis; microbial growth; ATCC29212): 32 µM
